Measurements from different studies.
Compare with care: the assays were run in different laboratories. ± marks the error that the study gave.
IDE: Insulin-degrading enzyme (IDE, Homo sapiens, UniProt P14735)

Compound | target or system | assay | system | setting | scale | endpoint | result
Cc1[nH]c(C)c(-c2cccc(-c3ccc(OC(F)(F)F)cc3)c2)c(=O)c1Br | Plasmodium yoelii |  | 17XL | 384-well |  | IC50 | 258 ± 67 nM
Nc1nccc2c1ncn2[C@@H]1C=C(CO)[C@@H](O)[C@H]1O | HBL-1 |  |  | 0.5 µM, 120 h |  | viability | 75%
Cc1cccc(-c2ccc([C@@H]3[C@H]4CN(C(=O)c5cccnc5)CC(=O)N4[C@H]3CO)cc2)c1 | IDE | enzyme activity, inhibitor, fluorogenic kinetic |  | together with: Mca-RPPGFSAFK(Dnp)-OH substrate |  | EC50 | 4200 nM
CCCc1cc(C)[nH]c(=O)c1CNC(=O)c1cc(-c2ccnc(N3CCN(C)CC3)c2)cc2c1cnn2C(C)C | HBL-1 |  |  | 0.5 µM, 120 h |  | viability | 129%
CCCCCCCc1ccc(-c2c(C)[nH]c(C)c(Cl)c2=O)cn1 | Plasmodium yoelii |  | 17XL | 384-well |  | IC50 | 315 ± 149 nM
Oc1ccccc1-c1n[nH]cc1-c1ccnc2ccccc12 | CMK2 (Candida albicans) | kinase binding, MIB/MS competition | Candida albicans lysate | 1 µM | baseline: DMSO | log2 fold change | -0.42
Cc1cc(NC2CCCC2)nc(Nc2ccccc2)n1 | Plasmodium yoelii |  | 17XL | 384-well |  | IC50 | > 20000 nM
CCS(=O)(=O)N1CCCCN2[C@@H](CO)[C@@H](c3ccc(C#Cc4ccccc4OC)cc3)[C@@H]2C1 | IDE | enzyme activity, inhibitor, fluorogenic kinetic |  | together with: Mca-RPPGFSAFK(Dnp)-OH substrate |  | EC50 | 1800 nM
Cc1cc(C)c(CNC(=O)c2cc(-c3ccc(CN4CCOCC4)cc3)cc3c2cnn3C2CCCC2)c(=O)[nH]1 | HBL-1 |  |  | 1 µM, 120 h |  | viability | 101%
c1coc(-c2n[nH]cc2-c2ccnc3ccccc23)c1 | ENV7 (Candida albicans) | kinase binding, MIB/MS competition | Candida albicans lysate | 10 µM | baseline: DMSO | log2 fold change | -0.01
CC(C)NCC(O)c1ccc(O)c(O)c1 (centres unmarked) |  |  | ventricular cardiomyocytes, C57BL/6 mouse | dose not given, 0.208 s |  | sarcomere length | 1.49 µm
Cc1[nH]c(C)c(-c2ccc(CCc3ccc(C(F)(F)F)cc3)nc2)c(=O)c1Cl | Plasmodium yoelii |  | 17XL | 384-well |  | IC50 | 271 ± 1 nM
N#C/C(=C\c1ccc(-c2cc(Cl)ccc2Cl)o1)C(=O)Nc1cccc2ncccc12 | HBL-1 |  |  | 1 µM, 120 h |  | viability | 98.9%
Cn1cc(-c2ccc(-c3cncc(Cl)c3N3CCC4(CCNC4=O)CC3)cc2)cn1 | COLO 205 | microarray, item: PAH |  | concentration not given, 6 h | baseline: untreated cells | fold change in expression | -2.41

A few entries again:
Compound | target or system | assay | system | setting | scale | endpoint | result
CCS(=O)(=O)N1CCCCN2[C@@H](CO)[C@@H](c3ccc(C#Cc4ccccc4OC)cc3)[C@@H]2C1 | IDE | enzyme activity, inhibitor, fluorogenic kinetic |  | together with: Mca-RPPGFSAFK(Dnp)-OH substrate |  | EC50 | 1800 nM
